Assay results collected from several papers.
± marks the error that the study gave.
Cell line: HT-29

Structure (SMILES)	assay	conditions	how to read	endpoint	value
O=C(Nc1nnc2c1c(-c1ccc(Cl)cc1)nc1sc(=Cc3ccco3)c(=O)n12)c1ccccc1 (mixture of isomers)	SRB	10 µM, NCI60 single-dose screen, colon cancer	relative to: untreated	cell growth	49.2%
C1=[N+]2CCCC[N+]3=Cc4ccc5[n]4[Au-]23[n]2c1ccc2-c1nc2ccccc2nc1-5.F[P-](F)(F)(F)(F)F	NCI60 five-dose screen	–	–	TGI	4.45 -log M
CCCCCCCCCC(=O)Oc1c(C)c(OC)c2c(/C=C/c3ccccc3)c(CCCCCCCC)c(=O)oc2c1C	cell growth or viability, SRB	72 h	–	IC50	> 50 µM
CC(C)c1ccc(N(C)c2ccc3c(c2)OCC[C@H]3CNc2cnccc2C(=O)O)cc1	cell growth or viability, ATP luminescence	7 days	–	IC50	0.037 µM
C=CCOc1c(C)c(OC)c(C(=O)/C=C/c2ccccc2)c(OCC=C)c1C	cell growth or viability, SRB	72 h	–	IC50	> 50 µM
CN1CCCC1CS(=O)(=O)NC12CCCC(C)(CCC3C1CC3(C)C)C2 (stereo not drawn)	cell growth or viability, CCK-8	10 µM	–	inhibition	74%
CO[C@@H](C[C@H]1C(C)=CC[C@@H]2[C@]3(C)C[C@H](O[C@@H]4O[C@@H](C)[C@H](OC(=O)c5cccc(O)c5)[C@@H](O)[C@H]4O)[C@@H](O)C(C)(C)[C@H]3CC[C@]21C)[C@H](N)C(=O)O	cell growth or viability, CCK-8	72 h	–	IC50	> 10 µM
COc1c(C)c(OCc2ccccc2)c(C)c(OCc2ccccc2)c1C(=O)/C=C/c1ccccc1	cell growth or viability, SRB	72 h	–	IC50	> 50 µM
CNCCNC(=O)c1cn(C23CCCC(C)(CCC4C2CC4(C)C)C3)nn1 (stereo not drawn)	cell growth or viability, CCK-8	10 µM	–	inhibition	62.7%
COc1c(C)c(O)c(C(=O)C=Cc2ccccc2)c(OC)c1C	SRB	–	relative to: normal over HT-29 IC50	selectivity index	1.29
CN1CCC(S(=O)(=O)NC23CCCC(C)(CCC4C2CC4(C)C)C3)CC1 (stereo not drawn)	cell growth or viability, CCK-8	10 µM	–	inhibition	82.5%
COc1c(C)c(OS(=O)(=O)c2ccccc2)c(C)c(OS(=O)(=O)c2ccccc2)c1C(=O)/C=C/c1ccccc1	cell growth or viability, SRB	72 h	–	IC50	> 50 µM
COc1cccc(OC)c1-c1cc(C(=O)NC2(C(=O)O)C3CC4CC(C3)CC2C4)nn1-c1ccc(C(=O)N(C)CCOCCN(C)C(=O)[C@H](CCCCNC(=O)[C@H](CC(C)C)NC(=O)C2OC2C(=O)O)NC(=O)CN2CCN(CC(=O)[O-])CCN(CC(=O)[O-])CCN(CC(=O)[O-])CC2)cc1C(C)C.[177Lu+3] (mixture of isomers)	–	concentration not given, 120 min	relative to: added activity	internalized fraction	3.67 ± 0.31%
CC12CCCC(NS(=O)(=O)c3cccc(N)c3)(C1)C1CC(C)(C)C1CC2 (stereo not drawn)	cell growth or viability, CCK-8	10 µM	–	inhibition	< 50%
COc1c(C)c(OC(=O)c2ccccc2)c(C)c(OC(=O)c2ccccc2)c1C(=O)/C=C/c1ccccc1	SRB	–	relative to: normal over HT-29 IC50	selectivity index	0.75
CCN(C(=O)c1cc(F)ccc1Oc1nncnc1N1CCC2(C1)CN([C@H](CCCN(C)CCOC)C(C)C)C2)C(C)C	cell growth or viability	72 h	–	GI50	> 10 µM
CC12CCCC(NS(=O)(=O)c3ccccc3)(C1)C1CC(C)(C)C1CC2 (stereo not drawn)	cell growth or viability, CCK-8	50 µM	–	inhibition	97.7%
COc1cccc(OC)c1-c1cc(C(=O)NC2(C(=O)O)C3CC4CC(C3)CC2C4)nn1-c1ccc(C(=O)NCCNC(=O)[C@H](CCCCNC(=O)[C@H](CC(C)C)NC(=O)C2OC2C(=O)O)NC(=O)CN2CCN(CC(=O)[O-])CCN(CC(=O)[O-])CCN(CC(=O)[O-])CC2)cc1C(C)C.[177Lu+3] (mixture of isomers)	–	concentration not given, 120 min	relative to: added activity	internalized fraction	1.6 ± 0.11%
